Results pooled from the literature.
Every numbered part comes from another study and shows a few of its results, in no order. Positions count from the first letter of the parent shown.

Study 1 — target: CCNB3, cyclin fold, Cln2 fusion (human); technique: yeast growth competition, sequencing; sample: yeast; notes: weak parent motif; reference: not given; direction: higher = stronger binding; endpoint: normalised enrichment score
Starting sequence: REV3L docking peptide (human); PPVIIKYIIINRF
P2A: 0.186
K6A: 0.131
I9A: 0.191
I4A: 0.056
F13A: 0.431
V3A: 0.227
R12A: 0.467

Study 2 — technique: protein-binding microarray; molecule type: double-stranded DNA, one strand shown; sample: in vitro; tested at: 250 nM; notes: 60-bp whole probe; together with: salmon DNA 0.4 mg/ml; reference: random background probes; direction: higher = stronger binding; endpoint: log fluorescence; all sequences stand within: GCCTAGCAC … GTCTTGATTCGCTTGACGCTGCTG
Target: Interferon regulatory factor 5, full length, phosphomimetic (IRF5, Homo sapiens, UniProt Q13568-2, residues 1-514, K96S/S451D/S453D/S456D/S462D)
TGAAGACTTTCTTTCAAATGGTGCTAG: 1.92 z-score
TCAAGACTCTCTTGTCTGACTGTGCTA: -0.172 z-score
TTCATTTTGTGTCTGGGCATGTGCTAG: 0.405 z-score
GACGGTATCCTTATCCTTACGTGCTAG: 0.301 z-score
TTAGATATCAGGCTCGATTAGTGCTAG: 0.175 z-score
TCATCATTGTTTTTCATACTGTGCTAG: 1.43 z-score
TTAGATTTGAGTTCCGATTAGTGCTAG: 0.862 z-score
TTAAATTTCAGTCTCGATTAGTGCTAG: 3.96 z-score
TTCGCTTTCTTTAACTCATTGTGCTAG: 2.35 z-score
GACCGTATCGGACTGGGGACGTGCTAG: 0.663 z-score
GACGGTTTCCTTTTACTGACGTGCTAG: 1.26 z-score
GACGATCTCCGTATCGAGACGTGCTAG: 0.409 z-score
TCATGTTTGTCACTCTCAGAGTGCTAG: 0.387 z-score
GGAAGTATGACTCTGCCTCTGTGCTAG: 0.0986 z-score
GACGGAGTGGGTATCGGGACGTGCTAG: 0.391 z-score
TTAGAACTGAGACTGGATTAGTGCTAG: -0.268 z-score
GGCGGTATCGGGACTGGGGACGTGCTA: 1.12 z-score
GAAGGACTGGGACTGGGGACGTGCTAG: -0.572 z-score
GACGGGCTCGGTTTCGGGACGTGCTAG: 2.18 z-score

Study 3 — technique: DHFR PCA, deep sequencing; sample: yeast; together with: (+)-ABA 0.0091 µM; reference: wild-type fitted maximum; direction: higher = stronger binding; endpoint: relative binding score
Target: ABI1, truncated, D143A, DHFR fusion (Arabidopsis thaliana)
Notes: methotrexate growth selection, single substitutions
Starting sequence: PYL1, truncated, DHFR fusion (Arabidopsis thaliana); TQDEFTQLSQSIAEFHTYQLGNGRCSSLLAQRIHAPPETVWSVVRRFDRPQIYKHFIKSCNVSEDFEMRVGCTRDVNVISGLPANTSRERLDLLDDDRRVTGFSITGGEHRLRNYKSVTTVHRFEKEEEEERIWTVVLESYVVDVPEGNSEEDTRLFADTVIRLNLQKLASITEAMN
D144P: -0.534%
D92I: -4.88%
D3Q: 38.9%
R74D: -9.67%
F15G: 0.215%
Q10V: 3.24%
E147K: 20.1%
N165S: 2.18%
L93Y: 12.1%
T1Q: 23.9%
K58S: 9.14%
M176F: -4.28%
T101G: -6.71%
F56L: 2.71%
S117N: -3.26%
F103C: -0.796%
E151A: 49.7%
I105V: 22.5%
F5L: 45.9%
G21L: 0.971%
Q19E: 52.3%
E139N: -3.55%

Study 4 — technique: RNAcompete; molecule type: RNA; sample: in vitro; tested at: 20 nM; notes: 7-mer, probes averaged, single round; reference: mean of 7-mers; direction: higher = stronger binding; endpoint: 7-mer Z-score
Target: PABPC1L2, full length, GST fusion (mouse, UniProt A0ABA7IW68)
Construct (chain): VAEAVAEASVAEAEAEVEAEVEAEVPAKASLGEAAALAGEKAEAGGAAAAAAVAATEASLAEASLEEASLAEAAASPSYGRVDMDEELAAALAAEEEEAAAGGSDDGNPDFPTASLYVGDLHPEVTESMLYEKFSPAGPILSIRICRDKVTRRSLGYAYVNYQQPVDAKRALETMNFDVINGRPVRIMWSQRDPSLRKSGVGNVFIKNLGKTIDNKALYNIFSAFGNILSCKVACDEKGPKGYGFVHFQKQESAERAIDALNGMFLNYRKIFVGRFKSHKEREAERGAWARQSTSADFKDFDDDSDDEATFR
UGCGCAG: -0.184
CCUACAU: -0.144
UUGGAUG: -0.139
ACAUGGC: 0.153
UCACUUA: -0.255
AACACUU: 0.142
CUCUGCU: -0.389
UUCCCCG: -0.485
GAACCGG: -0.0844
ACUAUGC: -0.0446
CUCUCGA: -0.119
ACUGUGC: -0.162
GCAUGCG: -0.266
CGGGCCA: -0.0192
CUGUUAG: -0.269
GACUAAU: -0.229
CAGUGCC: -0.264
UGUCGUG: -0.275
CUUGCGG: -0.151
AAGUUCA: 0.109
AAUUAAA: 0.798
UUAACGU: -0.246

Study 5 — technique: universal PBM; molecule type: double-stranded DNA, one strand shown; sample: in vitro; tested at: 600 nM; direction: higher = stronger binding; endpoint: E-score
Target: Sal-like protein 4, full length isoform A (SALL4, Homo sapiens, UniProt Q9UJQ4, residues 1-1053)
Sequence of UniProt Q9UJQ4 (whole entry, looked up): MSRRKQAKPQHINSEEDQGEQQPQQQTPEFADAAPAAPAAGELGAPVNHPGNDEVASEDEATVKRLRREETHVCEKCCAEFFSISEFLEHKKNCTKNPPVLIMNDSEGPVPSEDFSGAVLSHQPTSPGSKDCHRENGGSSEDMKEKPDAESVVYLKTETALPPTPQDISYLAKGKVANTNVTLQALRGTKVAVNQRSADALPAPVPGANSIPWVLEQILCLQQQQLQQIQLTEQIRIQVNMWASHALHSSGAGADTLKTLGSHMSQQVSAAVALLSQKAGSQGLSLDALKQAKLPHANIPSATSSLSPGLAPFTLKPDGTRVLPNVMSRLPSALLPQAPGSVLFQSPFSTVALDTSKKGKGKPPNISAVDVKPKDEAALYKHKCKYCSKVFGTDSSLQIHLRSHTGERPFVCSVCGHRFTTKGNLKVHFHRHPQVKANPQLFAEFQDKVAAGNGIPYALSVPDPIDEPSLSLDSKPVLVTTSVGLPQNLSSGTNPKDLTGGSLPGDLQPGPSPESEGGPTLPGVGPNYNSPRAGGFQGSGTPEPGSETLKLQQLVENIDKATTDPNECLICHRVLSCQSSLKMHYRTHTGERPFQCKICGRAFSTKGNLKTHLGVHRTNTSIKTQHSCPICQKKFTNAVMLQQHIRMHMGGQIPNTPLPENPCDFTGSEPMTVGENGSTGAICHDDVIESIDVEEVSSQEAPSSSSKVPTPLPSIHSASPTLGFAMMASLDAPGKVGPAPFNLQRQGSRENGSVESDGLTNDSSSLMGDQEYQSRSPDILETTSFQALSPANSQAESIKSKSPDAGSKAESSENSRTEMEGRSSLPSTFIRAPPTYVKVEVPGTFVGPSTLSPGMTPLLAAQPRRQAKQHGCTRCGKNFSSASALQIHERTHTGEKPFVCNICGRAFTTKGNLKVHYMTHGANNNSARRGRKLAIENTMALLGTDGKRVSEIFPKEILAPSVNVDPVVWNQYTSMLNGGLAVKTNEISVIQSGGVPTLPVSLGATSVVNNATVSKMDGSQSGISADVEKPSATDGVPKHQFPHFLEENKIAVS
Notes: 8-mer, flanks averaged, mean of replicates
CCGTTAAC: -0.12
GGCCCGCA: -0.28
GTCTATTA: 0.231
GGACCCCA: -0.376
CATGCGGA: -0.244
CTCTGATC: -0.139
CAGTTAAA: 0.182
TGGTAGAA: 0.000155
ACCAGTAT: -0.0163
ACTTTCGA: 0.0989
TCCCACAA: 0.0078
TCTCTCAA: 0.0975
AACGCGGG: -0.223
CAGTCAAA: 0.0407
CAACAAGA: 0.117
CCTATTTC: 0.105
AAGCGACG: -0.219
CATAAGCA: 0.197
AGCCTACT: -0.093
GAACGATC: -0.175
ATTTCCTA: 0.272
CCATTCCG: -0.221
AACGGTCA: -0.0414
TGGCGTAA: 0.0368
CTGAGTTC: -0.106

Study 6 — technique: protein binding microarray; molecule type: double-stranded DNA, one strand shown; sample: in vitro; tested at: not given; reference: not given; direction: higher = stronger binding; endpoint: E-score
Target: Histone acetyltransferase KAT6A, winged helix 1, GST fusion (KAT6A, Homo sapiens, UniProt Q92794, residues 1-85)
Notes: 8-mer, flanks averaged, mean of 2 arrays, mostly near background
Target sequence (chain): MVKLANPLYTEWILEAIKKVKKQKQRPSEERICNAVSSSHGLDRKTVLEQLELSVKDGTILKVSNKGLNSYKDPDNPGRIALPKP
CACTTACA: -0.143
ATCGCCGC: 0.407
ACTCCTGA: -0.113
ACGACTGA: -0.174
GAACACAA: -0.283
CCGACTCG: 0.0877
CTGCTCCA: -0.178
AACTAACT: -0.136
GCTTCATA: -0.0185
CGGCTTTA: 0.267
AACAATGA: -0.095
CCGGGGGA: 0.305
AACAAAGA: -0.247
ATGTGGCG: 0.34
ATAACCAA: -0.231
CTAAGCCA: -0.211
CAAGTGGG: -0.237
AAAGGGGG: -0.151
CGATCCCA: -0.0468
AGTCTTGA: -0.0839
TAAGGATA: -0.0973
AGTTAGAT: -0.174
ATGTGAAG: -0.212
